Published values of several laboratories.
Each line is one published result; not all experiments were run side by side. Several values in a cell are separate wells, animals, samples, runs or records. ± marks the error that the study gave.
Kir3.1/Kir3.2: Kir3.1/Kir3.2 (Homo sapiens, UniProt P48051+P48549)
FFAR4: Free fatty acid receptor 4 (FFAR4, Homo sapiens, UniProt Q5NUL3)
GAP50: Glideosome-associated protein 50 (GAP50, Plasmodium falciparum, UniProt Q8I2X3)
NADH dehydrogenase [ubiquinone] iron-sulfur protein 7, mitochondrial/NADH dehydrogenase [ubiquinone] iron-sulfur protein 2, mitochondrial/MT-ND1: NADH dehydrogenase [ubiquinone] iron-sulfur protein 7, mitochondrial/NADH dehydrogenase [ubiquinone] iron-sulfur protein 2, mitochondrial/MT-ND1 (Homo sapiens, UniProt O75251+O75306+P03886)
TMEM97: Sigma intracellular receptor 2 (TMEM97, Homo sapiens, UniProt Q5BJF2)
TRPM8: Transient receptor potential cation channel subfamily M member 8 (TRPM8, Homo sapiens, UniProt Q7Z2W7)

CCc1cc(NC(=O)COc2cccc(Cl)c2Cl)n(C2CCOCC2)n1
Emax (Kir3.1/Kir3.2; thallium flux, activator; HEK293; relative to: standard compound): 87%

O=Nc1c(NCCCc2ccccc2)[nH]c(=O)[nH]c1=O
inhibition (FFAR4; antagonist, β-arrestin recruitment; CHO cells; 10 µM): 15 ± 12%

c1ccc(Oc2ccc(-c3cc(N4CCOCC4)n[nH]3)cc2)cc1
kon (GAP50; binding, surface plasmon resonance; 1:1 binding model): 14800 M⁻¹ s⁻¹

NC(=O)NOCCCCCCCCCCCC[P+](c1ccccc1)(c1ccccc1)c1ccccc1.O=C([O-])C(F)(F)F
oxygen consumption rate (NADH dehydrogenase [ubiquinone] iron-sulfur protein 7, mitochondrial/NADH dehydrogenase [ubiquinone] iron-sulfur protein 2, mitochondrial/MT-ND1; complex I-dependent respiration, Seahorse XF96; HCT-116; 4 µM, 24 h; relative to: control): 1.51 ± 1.74%

CCCn1nc(C(=O)N2CCCCC2)c2c1CCC(N1CCC(c3ccncc3)CC1)C2 (centres unmarked)
selectivity ratio (TMEM97; [3H]DTG displacement; relative to: sigma 1, sigma 2 over): > 625 fold

Cc1cc(C)cc(COc2ccc3c(C)c(CCC(=O)O)c(=O)oc3c2C)c1
kon (GAP50; binding, surface plasmon resonance; 1:1 binding model): 35800 M⁻¹ s⁻¹

NC(=O)NOCCCCCCCCCCCCCCCCCCCC[P+](c1ccccc1)(c1ccccc1)c1ccccc1.O=C([O-])C(F)(F)F
oxygen consumption rate (NADH dehydrogenase [ubiquinone] iron-sulfur protein 7, mitochondrial/NADH dehydrogenase [ubiquinone] iron-sulfur protein 2, mitochondrial/MT-ND1; complex I-dependent respiration, Seahorse XF96; HCT-116; 0.2 µM, 24 h; relative to: control): 88.7 ± 7.81%

COc1ccc(C(=O)NCc2ccc(CNS(=O)(=O)c3ccccc3)cc2)cc1
EC (CXCR4 (Homo sapiens, UniProt P61073); binding, inhibitor, competitive binding; MDA-MB-231; with: biotinylated TN14003): 1000 nM

Cc1cc(NC(=O)CNC2CCNCC2)n(C2CCS(=O)(=O)C2)n1 (centres unmarked)
Emax (Kir3.1/Kir3.2; thallium flux, activator; HEK293; relative to: standard compound): < 10%

NC(=O)NOCCCCCCCCCCCCCCCC[P+](c1ccccc1)(c1ccccc1)c1ccccc1.O=C([O-])C(F)(F)F
oxygen consumption rate (NADH dehydrogenase [ubiquinone] iron-sulfur protein 7, mitochondrial/NADH dehydrogenase [ubiquinone] iron-sulfur protein 2, mitochondrial/MT-ND1; complex I-dependent respiration, Seahorse XF96; HCT-116; 1 µM, 24 h; relative to: control): 43 ± 3.82%

Nc1[nH]nc2nnc(-c3c(-c4ccccc4)nn4ccccc34)cc12
remaining activity (TRPM8; antagonist; HEK293; 5 µM; relative to: control): 73.7 ± 9.09%

Cc1cc2c(c(=O)[nH]1)C(=O)O/C2=C\c1cc(Br)ccc1OC(C)C
ligand efficiency (Dual specificity calcium/calmodulin-dependent 3',5'-cyclic nucleotide phosphodiesterase 1C, isoform PDE1C2 (PDE1C, Homo sapiens, UniProt Q14123); enzyme activity, inhibitor; with: 3H-cGMP substrate): 0.39

[2H]C([2H])(N)c1ccc(C(F)(F)F)cc1
pKa2 (Maoa (Rattus norvegicus, UniProt P21396); kcat/Km descending limb free E S, substrate; pH 6.5-9.5): 9.1 ± 0.2

O=S(=O)(O)C1CCNCC1
normalised MST signal (SLC6A6 (Homo sapiens, UniProt P31641, G62A); binding, microscale thermophoresis; 1.95 µM, room temperature, with: 50 nM labelled protein; higher = more binding): 0.00334

OCC1CN(Cc2ccccc2)CC12CCN(CC1CCCCC1)CC2 (centres unmarked)
delta Tm (Prelamin-A/C, isoform C (Homo sapiens, UniProt P02545); CETSA; A549; 100 µM, 24 h): 0.8 °C

Cc1ccc(CCNc2cc(=O)[nH]c(=O)[nH]2)cc1
agonist effect (FFAR4; agonist, β-arrestin recruitment; CHO cells; 10 µM; relative to: 30 µM TUG-891): 1 ± 1%

CCc1cc(NC(=O)COc2ccc(Cl)cc2Cl)n(CC(F)(F)F)n1
Emax (Kir3.1/Kir3.2; thallium flux, activator; HEK293; relative to: standard compound): 90%

N=C(N)NCCCCC(=O)Nc1cc(C(F)(F)F)cc(NC(=O)c2cc(C(=O)Nc3cc(C(F)(F)F)cc(NC(=O)CCCCNC(=N)N)c3O[C@@H]3CCNC3)ncn2)c1O[C@@H]1CCNC1
kon (GAP50; surface plasmon resonance): 21200 M⁻¹ s⁻¹

COc1ccc(F)cc1C(=O)NCc1ccc(-c2nn([C@@H](C)C(F)(F)F)c(N)c2C(N)=O)cc1
remaining activity (MAP3K11 (Homo sapiens, UniProt Q16584); kinase activity, inhibitor, HotSpot radiometric; 100 nM, with: ATP 10 µM): 91 ± 0.5%

NCCN(C(=O)c1ccc(Cl)cc1Cl)c1ccc(OCc2ccc(Cl)cc2)cc1
koff (GAP50; binding, surface plasmon resonance; 1:1 binding model): 0.0486 s⁻¹

O=c1nc(SCc2cc(F)cc(C(F)(F)F)c2)nc(SCc2ccc3nc(Cl)ccc3c2)[nH]1
mean linear DNA (TOP2A (Homo sapiens, UniProt P11388); DNA cleavage; 7.8 µM): 0%

O=C(O)/C=C/c1cc(Br)c(Br)c(Br)c1Br
remaining activity (TRPM8; antagonist; HEK293; 5 µM; relative to: control): 112 ± 8.89%

c1ccc(C(NCc2cccnc2)(c2ccccc2)c2ccccc2)cc1
fraction of electric field sensed (KCNQ1 (Homo sapiens, UniProt P51787); peak and end-pulse currents): 30 to 40%

CO[C@H](C(=O)N1Cc2c(-c3ccc(C(=O)N4CCCc5ccccc54)cc3)cnn2C[C@H]1C(C)C)c1cnn(C)c1 (single isomer, unassigned)
ΔTm (PRKN (Human, UniProt O60260); nanoDSF; 200 µM; relative to: DMSO): -1.3 °C

O=C(CCCCC1SC[C@@H]2NC(=O)N[C@H]12)NCCCN(CCCN1CCN(C2CCCCC2)CC1)CC(=O)Nc1ccc(C(=O)c2ccccc2)cc1 (stereo in doubt)
Ki ratio (TMEM97; radioligand binding; RT-4 cell membranes; relative to: sigma1 Ki over sigma2 Ki): 2.56

O=c1cc(NCCc2ccc(F)cc2)[nH]c(=O)[nH]1
agonist effect (FFAR4; agonist, β-arrestin recruitment; CHO cells; 10 µM; relative to: 30 µM TUG-891): 2 ± 1%

COC(=O)c1cn(C)c2ccc(-c3cccnc3)cc12
activation (Nuclear receptor subfamily 4 group A member 2, LBD; with RXRα (Homo sapiens, UniProt P43354); reporter gene, full-length heterodimer DR5 reporter; 10 µM; relative to: vehicle): 0.95 fold

Nc1ncnc2c1ncn2[C@@H]1O[C@H](COP(=O)(O)CP(=O)(O)OP(=O)(O)O)[C@@H](O)[C@H]1O
specific binding (P2X purinoceptor 1 (P2RX1, Homo sapiens, UniProt P51575, E122A); saturation binding; 13 nM): 163 corrected cpm and 137 corrected cpm and 124 corrected cpm

CCN1CCN(c2cc(N3CCN(CC)CC3)nc(NCCNc3ccnc4cc(Cl)ccc34)n2)CC1
activation (Nuclear receptor subfamily 4 group A member 2, LBD (Homo sapiens, UniProt P43354); reporter gene, Gal4 hybrid reporter; 20 µM; relative to: vehicle): 2.12 fold

O=c1cc(NCc2cccc3ccccc23)[nH]c(=O)[nH]1
agonist effect (FFAR4; agonist, β-arrestin recruitment; CHO cells; 10 µM; relative to: 30 µM TUG-891): 1%

C[C@@H](O)[C@@H](CO)NC(=O)[C@@H](CCCNC(=N)N)NC(=O)[C@@H]1CCCN1C(=O)[C@@H]1CSSC[C@H](NC(=O)[C@H](Cc2ccccc2)NC(=O)CN2CCN(CC(=O)O)CCN(CC(=O)O)CCN(CC(=O)O)CC2)C(=O)N[C@@H](Cc2ccc(O)cc2)C(=O)N[C@@H](Cc2ccccc2)C(=O)N[C@@H](CCC(N)=O)C(=O)N[C@@H](CC(N)=O)C(=O)N1 [gallium-68 labelled]
binding (AVPR1B (Homo sapiens, UniProt P47901); receptor binding, radioimmunoassay; concentration not given, with: vasopressin V1b 15.6 nM): 6.5% and 4% and 4.9%

CO[C@H]1O[C@H](COS(=O)(=O)O)[C@@H](O[C@@H]2O[C@@H](C(=O)O)[C@@H](O[C@H]3O[C@H](COS(=O)(=O)O)[C@@H](O[C@@H]4O[C@H](C(=O)O)[C@@H](O[C@H]5O[C@H](COS(=O)(=O)O)[C@@H](O)[C@H](O)[C@H]5NS(=O)(=O)O)[C@H](O)[C@H]4O)[C@H](OS(=O)(=O)O)[C@H]3NS(=O)(=O)O)[C@H](O)[C@H]2OS(=O)(=O)O)[C@H](O)[C@H]1NS(=O)(=O)O
binding stoichiometry (Beta-2-glycoprotein 1, domain V (APOH, Homo sapiens, UniProt P02749, V266L); isothermal titration calorimetry; concentration not given, 298 K, with: 150 mM NaCl): 1.08 ± 0.12

Oc1ccccc1-c1n[nH]cc1-c1ccnc2ccccc12
log2 fold change (Serine/threonine-protein kinase PKH2 (Candida albicans, UniProt Q5A3P6); kinase binding, MIB/MS competition; Candida albicans lysate; 10 µM; relative to: DMSO, negative = stronger binding): 0.29

Cl.Cl.NNCCc1ccc(NC(=O)CCCc2ccccc2)cc1
kinact (MAOA (Homo sapiens, UniProt P21397)): 0.3 ± 0.11 min⁻¹

Nc1nc2c(ncn2[C@@H]2O[C@H](COP(=O)(O)O)[C@@H](O)[C@H]2O)c(=O)[nH]1
reaction velocity (GUK1 (Homo sapiens, UniProt Q16774); enzyme activity, NADH-coupled; 250 µM, with: KCl 10 mM): 0.103 µM/s and 0.12 µM/s and 0.0998 µM/s

O=C(c1cc2cc(O)ccc2[nH]1)c1cc2cc(O)ccc2[nH]1
remaining activity (TRPM8; antagonist; HEK293; 5 µM; relative to: control): 100 ± 9.57%

NC(Cc1cc(I)c(Oc2cc(I)c(O)c(I)c2)c(I)c1)C(=O)O (centres unmarked)
activity relative to T3 (Thyroxine 5-deiodinase (DIO3, Homo sapiens, UniProt P55073); deiodination, substrate; concentration not given; relative to: T3): 88%

C=CC(=O)N1CCC(COCC(=O)N2CCN(c3nc(-c4cnc(N)nc4C(F)F)nc(N4CCOC[C@@H]4C)n3)CC2)CC1
remaining binding (FLT3 (Homo sapiens, UniProt P36888, D835V); KINOMEscan; 1 µM): 49%

COc1cccc(-n2nc3c4cc(Cl)ccc4[nH]cc-3c2=O)c1
GABA current (Gamma-aminobutyric acid receptor subunit alpha-4/beta-3, with delta subunit (Rattus norvegicus, UniProt P28471+P63079); modulator, two-electrode voltage clamp; α4β3δ receptor; 1 µM, with: GABA EC3-10; relative to: GABA alone): 109 ± 3.3%

CC(C)(c1cc(Br)c(OCC2CO2)c(Br)c1)c1cc(Br)c(OCC2CO2)c(Br)c1 (centres unmarked)
SERCA1 inhibition (ATP2A1 (Oryctolagus cuniculus, UniProt P04191); ATPase activity; rabbit microsomes; concentration not given, pH 7.3, with: ATP 5 mM): inactive

N[C@](CCCCB(O)O)(CCN1CCCCC1)C(=O)O
binding stoichiometry (Arginase (Schistosoma mansoni, UniProt Q6WVP6); isothermal titration calorimetry; concentration not given): 0.908 ± 0.003
